Experimental data from different studies.
Protocols differ between the studies behind these lines. ± gives the spread as reported.
Scn2a: Sodium channel protein type 2 subunit alpha (Scn2a, Rattus norvegicus, UniProt P04775)
Secreted effector protein C403A/D356A: Secreted effector protein (Yersinia pestis, UniProt O68720, C403A/D356A)
OPRL1: Nociceptin receptor (OPRL1, Homo sapiens, UniProt P41146)

Sequences of proteins named here, by UniProt entry; tags and fusion partners are left off. A line that says so, or that is headed by a name, gives the form on record, which may keep a tag or linker. Residues count along the entry.
UniProt P04775, whole entry: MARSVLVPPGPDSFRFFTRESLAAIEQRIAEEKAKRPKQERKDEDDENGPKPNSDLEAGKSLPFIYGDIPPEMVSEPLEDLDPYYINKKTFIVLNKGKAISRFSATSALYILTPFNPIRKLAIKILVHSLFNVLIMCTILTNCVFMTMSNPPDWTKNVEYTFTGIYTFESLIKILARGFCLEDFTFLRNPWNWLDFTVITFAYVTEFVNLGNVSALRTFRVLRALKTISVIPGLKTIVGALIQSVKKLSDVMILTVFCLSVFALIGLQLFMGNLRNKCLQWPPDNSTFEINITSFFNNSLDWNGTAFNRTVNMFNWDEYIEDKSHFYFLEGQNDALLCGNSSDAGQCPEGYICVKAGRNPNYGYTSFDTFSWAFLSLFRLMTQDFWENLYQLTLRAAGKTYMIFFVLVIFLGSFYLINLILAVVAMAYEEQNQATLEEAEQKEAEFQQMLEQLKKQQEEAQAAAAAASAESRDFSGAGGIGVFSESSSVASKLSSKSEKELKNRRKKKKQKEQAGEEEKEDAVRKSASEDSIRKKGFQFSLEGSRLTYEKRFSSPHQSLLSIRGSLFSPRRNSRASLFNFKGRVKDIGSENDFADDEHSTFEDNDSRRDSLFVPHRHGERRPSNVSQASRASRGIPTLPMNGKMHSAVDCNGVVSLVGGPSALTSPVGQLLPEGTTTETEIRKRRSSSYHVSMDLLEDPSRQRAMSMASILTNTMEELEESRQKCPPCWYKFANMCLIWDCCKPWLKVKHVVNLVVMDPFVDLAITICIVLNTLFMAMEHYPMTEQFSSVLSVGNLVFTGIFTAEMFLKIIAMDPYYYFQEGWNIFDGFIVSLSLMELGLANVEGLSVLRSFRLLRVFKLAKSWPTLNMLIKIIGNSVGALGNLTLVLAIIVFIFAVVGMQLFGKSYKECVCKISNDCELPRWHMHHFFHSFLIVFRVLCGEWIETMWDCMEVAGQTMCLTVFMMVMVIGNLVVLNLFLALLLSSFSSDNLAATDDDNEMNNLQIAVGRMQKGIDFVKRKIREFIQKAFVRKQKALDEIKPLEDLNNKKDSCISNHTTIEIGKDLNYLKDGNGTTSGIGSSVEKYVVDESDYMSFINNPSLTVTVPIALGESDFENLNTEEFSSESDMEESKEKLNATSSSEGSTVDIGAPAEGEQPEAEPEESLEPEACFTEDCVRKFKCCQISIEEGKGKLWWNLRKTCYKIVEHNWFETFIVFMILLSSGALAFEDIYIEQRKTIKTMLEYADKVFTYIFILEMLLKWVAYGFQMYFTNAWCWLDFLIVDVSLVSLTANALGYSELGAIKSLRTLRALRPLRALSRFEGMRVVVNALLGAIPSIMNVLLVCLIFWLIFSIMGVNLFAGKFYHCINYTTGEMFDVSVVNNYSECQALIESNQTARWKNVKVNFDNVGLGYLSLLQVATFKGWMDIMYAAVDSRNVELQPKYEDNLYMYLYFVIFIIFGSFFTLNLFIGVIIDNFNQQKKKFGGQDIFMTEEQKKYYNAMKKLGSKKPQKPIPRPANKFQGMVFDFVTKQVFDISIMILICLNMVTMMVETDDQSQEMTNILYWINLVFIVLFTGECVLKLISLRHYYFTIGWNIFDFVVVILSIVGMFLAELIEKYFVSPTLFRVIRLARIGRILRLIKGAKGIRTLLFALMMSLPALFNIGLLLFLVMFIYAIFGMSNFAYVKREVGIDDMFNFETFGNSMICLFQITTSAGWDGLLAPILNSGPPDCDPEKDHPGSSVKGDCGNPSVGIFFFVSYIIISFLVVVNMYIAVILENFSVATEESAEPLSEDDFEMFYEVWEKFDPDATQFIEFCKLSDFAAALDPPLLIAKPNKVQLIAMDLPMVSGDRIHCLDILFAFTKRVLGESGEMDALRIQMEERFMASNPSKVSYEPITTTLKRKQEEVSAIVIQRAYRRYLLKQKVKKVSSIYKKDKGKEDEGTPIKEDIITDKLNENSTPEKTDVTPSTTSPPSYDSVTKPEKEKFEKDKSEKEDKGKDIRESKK
UniProt P41146, whole entry: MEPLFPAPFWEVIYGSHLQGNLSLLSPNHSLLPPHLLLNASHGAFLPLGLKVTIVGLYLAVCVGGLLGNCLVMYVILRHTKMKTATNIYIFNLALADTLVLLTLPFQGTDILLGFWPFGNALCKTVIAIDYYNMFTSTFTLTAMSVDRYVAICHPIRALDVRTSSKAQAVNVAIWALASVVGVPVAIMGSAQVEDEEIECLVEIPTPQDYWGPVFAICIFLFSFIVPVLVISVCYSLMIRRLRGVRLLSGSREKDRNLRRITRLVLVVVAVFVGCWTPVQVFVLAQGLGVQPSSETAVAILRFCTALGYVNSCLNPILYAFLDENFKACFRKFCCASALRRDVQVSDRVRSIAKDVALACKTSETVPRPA
UniProt P32297, whole entry, looked up: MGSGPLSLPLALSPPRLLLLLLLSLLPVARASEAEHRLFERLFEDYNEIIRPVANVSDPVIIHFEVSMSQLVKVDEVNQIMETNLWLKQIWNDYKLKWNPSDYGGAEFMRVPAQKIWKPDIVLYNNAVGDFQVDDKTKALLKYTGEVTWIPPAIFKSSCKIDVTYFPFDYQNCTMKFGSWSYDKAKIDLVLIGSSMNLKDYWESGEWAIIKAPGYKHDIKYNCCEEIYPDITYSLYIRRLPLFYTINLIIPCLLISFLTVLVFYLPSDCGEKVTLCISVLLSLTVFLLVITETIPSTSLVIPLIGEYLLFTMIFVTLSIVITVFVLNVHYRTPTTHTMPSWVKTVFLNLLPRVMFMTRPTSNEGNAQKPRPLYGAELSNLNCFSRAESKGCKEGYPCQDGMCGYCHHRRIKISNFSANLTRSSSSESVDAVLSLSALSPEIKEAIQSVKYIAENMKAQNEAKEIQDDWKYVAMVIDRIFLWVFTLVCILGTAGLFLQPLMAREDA
UniProt P08104, whole entry: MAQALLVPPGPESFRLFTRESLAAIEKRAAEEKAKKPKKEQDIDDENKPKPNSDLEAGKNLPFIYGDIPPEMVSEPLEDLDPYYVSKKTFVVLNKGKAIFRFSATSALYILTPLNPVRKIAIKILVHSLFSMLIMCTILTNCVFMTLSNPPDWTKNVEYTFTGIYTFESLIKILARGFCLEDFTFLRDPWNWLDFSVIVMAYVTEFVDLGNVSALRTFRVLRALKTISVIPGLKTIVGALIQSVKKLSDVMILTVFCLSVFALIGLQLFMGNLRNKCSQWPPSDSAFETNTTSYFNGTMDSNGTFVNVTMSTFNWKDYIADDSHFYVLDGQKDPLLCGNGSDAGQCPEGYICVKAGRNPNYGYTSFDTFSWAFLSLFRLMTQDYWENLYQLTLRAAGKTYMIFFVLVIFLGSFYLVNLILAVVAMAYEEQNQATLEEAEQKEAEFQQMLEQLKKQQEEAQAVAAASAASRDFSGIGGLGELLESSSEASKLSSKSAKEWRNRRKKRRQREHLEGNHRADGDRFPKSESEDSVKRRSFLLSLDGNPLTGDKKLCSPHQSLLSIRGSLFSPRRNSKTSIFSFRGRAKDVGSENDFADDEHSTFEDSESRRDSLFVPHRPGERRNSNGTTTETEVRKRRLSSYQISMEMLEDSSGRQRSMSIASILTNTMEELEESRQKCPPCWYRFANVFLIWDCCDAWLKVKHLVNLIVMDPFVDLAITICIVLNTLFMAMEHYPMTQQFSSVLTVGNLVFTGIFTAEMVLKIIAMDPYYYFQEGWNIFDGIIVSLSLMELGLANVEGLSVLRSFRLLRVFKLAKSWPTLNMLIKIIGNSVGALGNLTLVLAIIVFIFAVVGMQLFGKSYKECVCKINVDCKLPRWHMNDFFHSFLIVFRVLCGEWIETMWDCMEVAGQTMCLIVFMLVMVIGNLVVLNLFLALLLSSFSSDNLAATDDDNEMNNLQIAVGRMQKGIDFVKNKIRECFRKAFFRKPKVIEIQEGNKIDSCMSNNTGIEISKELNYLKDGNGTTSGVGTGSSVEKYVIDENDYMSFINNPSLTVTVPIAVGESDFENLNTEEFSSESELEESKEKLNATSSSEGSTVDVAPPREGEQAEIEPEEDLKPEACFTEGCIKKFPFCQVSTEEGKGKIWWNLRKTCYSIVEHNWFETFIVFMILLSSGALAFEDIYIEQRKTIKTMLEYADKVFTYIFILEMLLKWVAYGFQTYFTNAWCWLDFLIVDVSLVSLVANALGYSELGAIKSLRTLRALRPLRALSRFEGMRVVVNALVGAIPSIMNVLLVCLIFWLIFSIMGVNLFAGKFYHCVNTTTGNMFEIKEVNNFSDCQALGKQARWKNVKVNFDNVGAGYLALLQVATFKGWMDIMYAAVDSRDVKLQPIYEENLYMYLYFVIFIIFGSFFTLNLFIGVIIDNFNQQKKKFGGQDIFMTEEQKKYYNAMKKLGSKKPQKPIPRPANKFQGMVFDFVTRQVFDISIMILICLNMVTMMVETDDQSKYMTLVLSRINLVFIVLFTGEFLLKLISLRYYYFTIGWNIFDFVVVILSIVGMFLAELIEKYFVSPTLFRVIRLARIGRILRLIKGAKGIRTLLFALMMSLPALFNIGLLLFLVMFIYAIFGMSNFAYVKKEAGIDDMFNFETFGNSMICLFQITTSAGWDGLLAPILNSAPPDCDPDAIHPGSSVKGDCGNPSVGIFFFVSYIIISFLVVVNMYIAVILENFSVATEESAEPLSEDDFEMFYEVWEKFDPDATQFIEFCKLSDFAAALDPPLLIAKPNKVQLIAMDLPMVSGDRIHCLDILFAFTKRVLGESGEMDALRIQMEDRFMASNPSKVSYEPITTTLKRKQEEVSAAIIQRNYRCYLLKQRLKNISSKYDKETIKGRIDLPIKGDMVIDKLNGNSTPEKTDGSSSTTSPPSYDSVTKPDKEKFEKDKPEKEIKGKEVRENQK
UniProt O42275, whole entry, looked up: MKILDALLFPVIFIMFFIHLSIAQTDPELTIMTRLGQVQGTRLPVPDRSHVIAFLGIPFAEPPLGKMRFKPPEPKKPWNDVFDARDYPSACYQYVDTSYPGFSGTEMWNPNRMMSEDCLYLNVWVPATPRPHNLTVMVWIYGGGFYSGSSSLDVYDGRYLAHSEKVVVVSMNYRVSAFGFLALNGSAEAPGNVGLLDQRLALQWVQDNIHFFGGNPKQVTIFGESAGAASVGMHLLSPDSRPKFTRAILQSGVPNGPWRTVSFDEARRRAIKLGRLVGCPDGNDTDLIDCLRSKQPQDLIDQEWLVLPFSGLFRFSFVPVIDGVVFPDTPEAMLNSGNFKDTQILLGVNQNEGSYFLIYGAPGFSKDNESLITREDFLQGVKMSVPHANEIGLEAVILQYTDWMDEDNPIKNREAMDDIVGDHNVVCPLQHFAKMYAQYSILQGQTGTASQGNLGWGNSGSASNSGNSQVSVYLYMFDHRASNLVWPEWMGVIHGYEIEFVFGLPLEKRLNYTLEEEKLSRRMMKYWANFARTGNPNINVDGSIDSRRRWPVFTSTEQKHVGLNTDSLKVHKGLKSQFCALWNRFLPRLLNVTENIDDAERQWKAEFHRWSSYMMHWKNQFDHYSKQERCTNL
UniProt P26045, 646-901 limits assumed: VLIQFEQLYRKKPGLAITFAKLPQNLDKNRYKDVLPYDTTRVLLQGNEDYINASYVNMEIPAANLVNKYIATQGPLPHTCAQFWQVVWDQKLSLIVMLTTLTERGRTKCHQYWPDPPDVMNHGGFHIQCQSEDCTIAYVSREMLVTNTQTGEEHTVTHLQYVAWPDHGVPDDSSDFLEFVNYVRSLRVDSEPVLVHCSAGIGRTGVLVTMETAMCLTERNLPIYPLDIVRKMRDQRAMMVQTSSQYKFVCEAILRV
UniProt Q9Y6W6, 321-464 limits assumed: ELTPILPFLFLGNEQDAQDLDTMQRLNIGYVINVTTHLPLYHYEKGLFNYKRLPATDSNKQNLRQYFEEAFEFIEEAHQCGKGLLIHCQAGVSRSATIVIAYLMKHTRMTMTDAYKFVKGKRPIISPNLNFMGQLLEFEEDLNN
UniProt P08510, 1-655 with tags or gaps DEL6-46: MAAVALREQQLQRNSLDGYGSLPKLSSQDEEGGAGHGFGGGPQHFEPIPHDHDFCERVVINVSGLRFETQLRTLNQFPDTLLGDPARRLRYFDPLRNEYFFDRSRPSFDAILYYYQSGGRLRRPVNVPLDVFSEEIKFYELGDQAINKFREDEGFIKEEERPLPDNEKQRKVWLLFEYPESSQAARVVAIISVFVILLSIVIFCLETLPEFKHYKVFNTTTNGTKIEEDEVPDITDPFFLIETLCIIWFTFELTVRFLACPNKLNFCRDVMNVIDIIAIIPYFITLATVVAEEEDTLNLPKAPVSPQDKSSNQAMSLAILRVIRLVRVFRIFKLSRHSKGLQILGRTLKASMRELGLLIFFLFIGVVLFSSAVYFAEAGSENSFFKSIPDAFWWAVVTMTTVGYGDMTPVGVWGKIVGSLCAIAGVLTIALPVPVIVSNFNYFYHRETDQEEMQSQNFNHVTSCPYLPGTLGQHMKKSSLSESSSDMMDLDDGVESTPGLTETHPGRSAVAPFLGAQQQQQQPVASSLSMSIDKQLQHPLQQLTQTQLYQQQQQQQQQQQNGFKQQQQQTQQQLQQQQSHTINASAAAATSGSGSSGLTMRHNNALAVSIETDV

SMILES = C[C@H](N)C(=O)N[C@H]1CSSC[C@@H]2NC(=O)[C@H](CCCNC(=N)N)NC(=O)[C@H](CO)NC(=O)[C@H](Cc3c[nH]cn3)NC(=O)[C@H](CC(=O)O)NC(=O)[C@H](CCCNC(=N)N)NC(=O)[C@H](C)NC(=O)[C@H](Cc3c[nH]c4ccccc34)NC(=O)[C@H](CCCCN)NC(=O)[C@H](CO)NC(=O)[C@H](CO)NC(=O)[C@H](CSSC[C@@H](C(N)=O)NC2=O)NC(=O)[C@H](CC(N)=O)NC1=O; target = Scn2a; assay = sodium current, blocker, two-electrode voltage clamp; test system = Xenopus oocytes; setting = 1 µM, 20 min, steady state; quantity = block; result = 93 ± 2%
SMILES = O=C(O)C(O)=CC(=O)C1(Cc2ccc(Cl)cc2)CCN(Cc2ccc3ccccc3c2)CC1; target = Replicase polyprotein 1ab, nsp14 with nsp10 (rep, Severe acute respiratory syndrome coronavirus 2, UniProt P0DTD1); assay = exonuclease activity, inhibitor; setting = 20 µM; quantity = inhibition; result = 5%
SMILES = N[C@@H](Cc1ccc(OP(=O)(O)O)cc1)C(=O)O; target = Secreted effector protein C403A/D356A; assay = surface plasmon resonance; setting = immobilized protein; quantity = kon; result = 0.399 M⁻¹ s⁻¹
SMILES = O=C1Cc2ccccc2N1C1CCN([C@@H]2CC[C@H]3CCCc4cccc2c43)CC1; target = OPRL1; assay = β-arrestin 2 recruitment, BRET; test system = HEK293; scale = relative to: compound EC50 over N/OFQ EC50; quantity = potency ratio; result = 105
SMILES = CC[C@H](C)[C@@H]1NC(=O)[C@H](CCC(=O)O)NC(=O)[C@@H]2CCCN2C(=O)[C@H](Cc2c[nH]cn2)NC(=O)[C@H](CC(=O)O)NC(=O)[C@H](C(C)C)NC(=O)[C@H](CC(N)=O)NC(=O)[C@@H]2CSSC[C@H](NC(=O)[C@H](CCC(N)=O)NC(=O)[C@@H]3CCCN3C(=O)[C@@H](N)CCCNC(=N)N)C(=O)N[C@@H](CSSC[C@@H](C(N)=O)NC1=O)C(=O)N[C@@H](CO)C(=O)N[C@@H](Cc1c[nH]cn1)C(=O)N1CCC[C@H]1C(=O)N[C@@H](C)C(=O)N2; target = Neuronal acetylcholine receptor; alpha3/beta2 (Homo sapiens, UniProt P17787+P32297); assay = ACh-evoked current, antagonist, two-electrode voltage clamp; test system = Xenopus oocytes; setting = 5 min, pH 7.4, holding potential -70 mV; quantity = maximal inhibition; result = 96%
SMILES = CC(C)[C@H]1CC[C@@H](N2CCC3(CC2)C(=O)NCN3c2ccccc2)CC1; target = OPRL1; assay = G protein activation, GTPγS binding; test system = CHO membranes; setting = unit not given; scale = relative to: basal binding; quantity = Emax; result = 5.11 ± 0.47
SMILES = Cc1ccc(S(=O)(=O)Nc2cccc(C(=O)NC3CCN(c4ncnc5[nH]cnc45)CC3)c2)cc1; target = Replicase polyprotein 1ab, nsp14 ExoN with nsp10 (rep, Severe acute respiratory syndrome coronavirus 2, UniProt P0DTD1); assay = ExoN activity; setting = 200 µM; quantity = inhibition; result = 17.6%
SMILES = CC(C)[C@H](N)C(=O)NCC(=O)N[C@@H](CCC(=O)O)C(=O)N[C@@H](CCCNC(=N)N)C(=O)N[C@H]1C[Se][Se]C[C@@H]2NC(=O)[C@H](Cc3c[nH]c4ccccc34)NC(=O)[C@H](CCCNC(=N)N)NC(=O)CNC(=O)[C@H](C)NC(=O)CNC(=O)[C@H](CCCNC(=N)N)NC(=O)[C@H](CCCCN)NC(=O)CNC(=O)[C@H](CC(N)=O)NC(=O)[C@H](CCCCN)NC(=O)[C@H](CSSC[C@@H](C(=O)N[C@@H](C)C(N)=O)NC(=O)[C@H](CCCNC(=N)N)NC(=O)[C@H](CO)NC(=O)[C@H](Cc3c[nH]cn3)NC(=O)[C@H](CC(=O)O)NC(=O)[C@H](CCCNC(=N)N)NC2=O)NC1=O; target = Sodium channel protein type 3 subunit alpha (Scn3a, Rattus norvegicus, UniProt P08104); assay = sodium current, two-electrode voltage clamp; scale = relative to: analogue over wild-type µ-conotoxin BuIIIB; quantity = Kd ratio; result = 2.1
SMILES = C[C@H](NC(=O)[C@@H]1CSSC[C@@H]2NC(=O)[C@H](CCCCN)NC(=O)[C@H](CCCCN)NC(=O)[C@@H]3C[C@@H](O)CN3C(=O)[C@@H]3C[C@@H](O)CN3C(=O)[C@H]([C@@H](C)O)NC(=O)[C@@H]3CSSC[C@H](NC(=O)[C@H](CCCNC(=N)N)NC(=O)[C@H](CCC(N)=O)NC(=O)[C@@H]4C[C@@H](O)CN4C(=O)[C@H](CCCCN)NC(=O)[C@H](CSSC[C@H](NC(=O)[C@H](CC(=O)O)NC(=O)[C@@H](N)CCCNC(=N)N)C(=O)N3)NC(=O)[C@H](CCC(N)=O)NC(=O)[C@H](CCCNC(=N)N)NC(=O)[C@H](CC(=O)O)NC(=O)[C@H](CCCCN)NC2=O)C(=O)N1)C(N)=O; target = Sodium channel protein type 4 subunit alpha (Scn4a, Rattus norvegicus, UniProt P15390); assay = sodium current; test system = Xenopus oocytes; setting = 1 µM; quantity = inhibition; result = 98%
SMILES = O=C(C1CCNC1)N1CCc2c(F)cc(F)cc21 (centres unmarked); target = Acetylcholinesterase (ache, Electrophorus electricus, UniProt O42275); assay = enzyme activity, inhibitor, Ellman; setting = 21.9 µM, with: acetylthiocholine iodide; quantity = Vmax; result = 0.105 absorbance units/min
SMILES = CC(=O)N[C@@H](Cc1c[nH]cn1)C(=O)N[C@@H](CC(=O)O)C(=O)NCC(=O)N[C@@H](CC(C)C)C(=O)N[C@@H](Cc1cc(=O)oc2cc(OP(=O)(O)O)ccc12)C(=O)N[C@@H](CCC(N)=O)C(=O)NCC(=O)N[C@@H](CC(C)C)C(=O)N[C@@H](CO)C(=O)N[C@H](C(=O)N[C@@H](C)C(=O)N[C@H](C(=O)N[C@@H](CCCCN)C(=O)N[C@@H](CC(=O)O)C(=O)N[C@H](C(=O)N[C@@H](Cc1ccc(O)cc1)C(=O)N[C@@H](CC(=O)O)C(=O)N[C@@H](C)C(=O)N[C@@H](CC(C)C)C(=O)N[C@@H](Cc1c[nH]cn1)C(N)=O)[C@@H](C)O)[C@@H](C)O)[C@@H](C)O; target = Tyrosine-protein phosphatase non-receptor type 3 (PTPN3, Homo sapiens, UniProt P26045); assay = substrate; setting = pH 6, TCR zeta-chain ITAM peptide; quantity = kcat; result = 1.12 s⁻¹
SMILES = COC(=O)[C@@H]1C=C(OC(=O)c2ccc(CO)cc2)C(=O)[C@H]2[C@@]1(C)CC[C@H]1C(=O)O[C@H](c3ccoc3)C[C@]21C; target = Mu-type opioid receptor (OPRM1, Homo sapiens, UniProt P35372); assay = agonist; scale = relative to: fentanyl, higher = more potent; quantity = potency ratio; result = > 5
SMILES = CC(=O)N[C@@H](Cc1c[nH]cn1)C(=O)N[C@H](C(=O)NCC(=O)N[C@@H](Cc1ccccc1)C(=O)N[C@@H](CC(C)C)C(=O)N[C@H](C(=O)N[C@@H](CCC(=O)O)C(=O)N[C@@H](Cc1cc(=O)oc2cc(OP(=O)(O)O)ccc12)C(=O)N[C@H](C(=O)N[C@@H](C)C(=O)N[C@H](C(=O)N[C@@H](CCCNC(=N)N)C(=O)N[C@@H](Cc1c[nH]c2ccccc12)C(N)=O)[C@@H](C)O)C(C)C)[C@@H](C)OP(=O)(O)O)[C@@H](C)O; target = Dual specificity protein phosphatase 10 (Homo sapiens, UniProt Q9Y6W6); assay = substrate; setting = pH 6, ERK1/2 activation-loop peptide; quantity = kcat/Km; result = 9190 M⁻¹ s⁻¹
SMILES = C[C@@H]1NC(=O)[C@H](Cc2c[nH]c3ccccc23)NC(=O)[C@H](CCCCN)NC(=O)COCCNC(=O)[C@@H]2CSSC[C@@H](C(N)=O)NC(=O)[C@H](CSSC[C@H](N)C(=O)N[C@@H](CC(N)=O)C(=O)N2)NC(=O)[C@H](CCCNC(=N)N)NC(=O)[C@H](CO)NC(=O)[C@H](Cc2c[nH]cn2)NC(=O)[C@H](CC(=O)O)NC(=O)[C@H](CCCNC(=N)N)NC1=O; target = Scn2a; assay = sodium current, blocker, two-electrode voltage clamp; test system = Xenopus oocytes; setting = 1 µM; quantity = block; result = 93 ± 1%
SMILES = CC[C@H](C)[C@H](NC(=O)[C@H](CC(C)C)NC(=O)[C@H](Cc1ccc(OP(=O)(O)O)cc1)NC(=O)[C@H](CCC(=O)O)NC(=O)[C@H](CC(=O)O)NC(=O)[C@H](C)NC(=O)[C@H](CC(=O)O)NC(=O)[C@@H](NC(=O)[C@H](CC(C)C)NC(=O)CCCC[C@@H]1SC[C@@H]2NC(=O)N[C@@H]21)C(C)C)C(=O)N1CCC[C@H]1C(=O)N[C@@H](CCC(N)=O)C(=O)N[C@@H](CCC(N)=O)C(=O)NCC(=O)O; target = Secreted effector protein C403A/D356A; assay = surface plasmon resonance; setting = immobilized protein; quantity = ΔG; result = -5.28 kcal/mol
SMILES = CN1C(=O)CCc2cc(C(=O)NCC=CS(C)(=O)=O)ccc21; target = Polyprotein P1234, nsP2 protease (Chikungunya virus, UniProt Q5XXP4); assay = time-dependent inhibition; quantity = kinact/KI; result = 1100 ± 60 M⁻¹ s⁻¹
SMILES = CCCCCCCCN1CC(=O)N[C@@H](Cc2c[nH]c3ccccc23)C(=O)N[C@H]2CSSC[C@H](N)C(=O)N[C@H]3CSSC[C@H](NC(=O)[C@H](CCCNC(=N)N)NC(=O)[C@H](CO)NC(=O)[C@H](Cc4c[nH]cn4)NC(=O)[C@H](CC(=O)O)NC(=O)[C@H](CCCNC(=N)N)NC2=O)C(=O)N[C@H](C(N)=O)CSSC[C@H](NC(=O)[C@H](CC(N)=O)NC3=O)C(=O)N[C@@H](CO)C(=O)N[C@@H](CO)C1=O; target = Scn2a; assay = sodium current, blocker, two-electrode voltage clamp; test system = Xenopus oocytes; setting = 10 µM; quantity = kobs; result = 0.26 ± 0.04 min⁻¹
SMILES = CNC(=O)CC1C(=O)N(C2CCN([C@H]3CC[C@@H](C(C)C)CC3)CC2)c2ccccc21 (some centres unmarked); target = OPRL1; assay = calcium mobilization; test system = CHO with Gαqi5; scale = relative to: compound over N/OFQ EC50; quantity = concentration ratio; result = 1
SMILES = N#Cc1cn([C@@H]2O[C@H](CSCC[C@H](N)C(=O)O)[C@@H](O)[C@H]2O)c2ncnc(N)c12; target = Replicase polyprotein 1ab, nsp16 with nsp10 (rep, Middle East respiratory syndrome-related coronavirus, UniProt K9N7C7); assay = methyltransferase activity, inhibitor, radiometric nsp10-nsp16; quantity = Hill slope; result = -0.9
SMILES = CC[C@H](C)[C@@H]1NC(=O)[C@H](CCCNC(=N)N)NC(=O)[C@@H](N)CSSC[C@@H]2NC(=O)[C@@H]3CSSC[C@@H](C(=O)N[C@H](C(=O)O)C(C)C)NC(=O)[C@H](CCCCN)NC(=O)[C@H](CC(N)=O)NC(=O)[C@H](Cc4ccccc4)NC(=O)[C@H](CCCNC(=N)N)NC(=O)[C@H](CC(N)=O)NC(=O)[C@H](CSSC[C@H](NC(=O)[C@H](CCCCN)NC(=O)[C@H](CCC(N)=O)NC(=O)[C@H](CC(N)=O)NC(=O)[C@@H]4C[C@@H](O)CN4C1=O)C(=O)N[C@@H](Cc1ccccc1)C(=O)N[C@@H](CCC(N)=O)C(=O)N[C@@H](Cc1c[nH]cn1)C(=O)N[C@@H](CC(C)C)C(=O)N[C@@H](CC(=O)O)C(=O)N[C@@H](CC(=O)O)C(=O)N3)NC(=O)[C@H](CCCCN)NC(=O)[C@H](CCCNC(=N)N)NC(=O)[C@H](CO)NC2=O; target = Sh (Drosophila melanogaster, UniProt P08510, del6-46); assay = potassium current, patch clamp, pooled data; setting = zero voltage; quantity = koff; result = 13 ± 2 s⁻¹
